Experimental data gathered from unrelated publications.
± gives the spread as reported.

| SMILES | assay | test system | setting | half-life [h] |
| --- | --- | --- | --- | --- |
| NC(=O)c1cnc2[nH]ccc2c1N[C@@H]1[C@@H]2CC3C[C@H]1C[C@@](O)(C3)C2 |  | healthy Caucasian men, plasma | oral, 60 mg, single dose fasted | 10 |
| C1CCc2c(c(N3CCOCC3)nc3sc4c(N5CCNCC5)nnnc4c23)C1 |  | male Swiss mouse, plasma | intravenous, 3 mg/kg | 0.66 |
| Nc1ccc(-c2nc(-c3ccc(Oc4ccc(C(F)(F)F)cc4)cc3)no2)cc1 |  | CD-1 mouse, plasma | intravenous, 50 mg/kg, single dose | 20 |
| COc1cccc(CN)c1O |  | male C57BL/6 mouse, brain | intraperitoneal, 200 mg/kg, single dose | 0.46 |
| Oc1ccc(-c2nc(-c3ccc(Oc4ccc(C(F)(F)F)cc4)cc3)no2)cc1 |  | CD-1 mouse, plasma | intravenous, 50 mg/kg, single dose | 22 |
| O=C(O)CCN1C(=O)/C(=C2/C(=O)Nc3ccc(Cl)cc32)SC1=S |  | mouse, plasma | intraperitoneal, 25 mg/kg, single dose | 9.51 |
| CCC(=O)c1ccc2c(c1)sc(=O)n2CCNC12CC3CC(CC(C3)C1)C2 | metabolic stability | rat, liver microsomes | 1 µM, pH 7.4 | 0.072 |
| Cc1ccc(NC(=O)c2ccc(CN3CCN(C)CC3)cc2)cc1Nc1nccc(-c2cncc(-c3oncc3C)c2)n1 |  | Parkinson's disease patients, plasma | oral, 50.0 mg once daily, day 1, 7-day dosing, mean | 10 |
| CN(CCn1c(=O)sc2ccccc21)C12CC3CC(CC(C3)C1)C2 | metabolic stability | rat, liver microsomes | 1 µM, pH 7.4 | 0.0177 |
| COc1cc(OC)c(/C=C/S(=O)(=O)Cc2ccc(OC)c(NCC(=O)O)c2)c(OC)c1 |  | cancer patients, phase I, plasma | oral, 560 mg twice daily, day 21 cycle 1 | 4.03 ± 2.92 |
| O=c1sc2ccccc2n1CCNC12CC3CC(CC(C3)C1)C2 | metabolic stability | rat, liver microsomes | 1 µM, pH 7.4 | 0.025 |
| CNCc1ccc(-c2[nH]c3cc(F)cc4c3c2CCNC4=O)cc1 |  | human, fed high-fat meal, plasma | oral, 600 mg, single dose, arithmetic mean | 16.8 |

Some of these lines once more:
| SMILES | assay | test system | setting | half-life [h] |
| --- | --- | --- | --- | --- |
| CNCc1ccc(-c2[nH]c3cc(F)cc4c3c2CCNC4=O)cc1 |  | human, fed high-fat meal, plasma | oral, 600 mg, single dose, arithmetic mean | 16.8 |
